Assay results pooled from the literature.
Compare with care: the assays were run in different laboratories. ± marks the error that the study gave.

For CC[C@H](C)[C@@H]1NC(=O)[C@H](CCCNC(=N)N)NC(=O)[C@H](CCCCN)NC(=O)[C@H](Cc2ccc(O)cc2)NC(=O)[C@H](CC(C)C)NC(=O)[C@@H]2CCCN2C(=O)[C@H](C)NC(=O)CNC(=O)CNC(=O)[C@H](CO)NC(=O)CNC(=O)CNC(=O)[C@H](CO)NC(=O)[C@H](CCC(=O)O)NC(=O)[C@H](CC(C)C)NC(=O)[C@H](CC(C)C)NC(=O)[C@H](CCCCN)NC(=O)[C@H](CCCCN)NC(=O)[C@H]([C@@H](C)CC)NC(=O)[C@H]([C@@H](C)CC)NC(=O)[C@H](CCCNC(=N)N)NC(=O)[C@H](CCCCN)NC(=O)[C@H](Cc2ccc(O)cc2)NC(=O)[C@H](CC(C)C)NC(=O)[C@@H]2CCCN2C(=O)CNC(=O)CNC(=O)[C@@H](NC(=O)CN)CSSC[C@@H](C(N)=O)NC(=O)[C@H](CC(C)C)NC(=O)[C@H](CCCCN)NC(=O)[C@H](CCCCN)NC(=O)[C@H]([C@@H](C)CC)NC1=O, “remaining intact peptide” read 3.6 ± 2.3% (25% human serum; 50 µM, 24 h; reference: 0 h control).
COc1cc(C(=O)NCCOCCOCCOCCNC(=O)c2ccc([18F])nc2)ccc1NC(=O)C1NC(CC(C)(C)C)C(C#N)(c2ccc(Cl)cc2F)C1c1cccc(Cl)c1F (centres unmarked) has a remaining intact of ~100% (human serum; 4 h, 37 °C).
CC[C@H](C)[C@@H]1NC(=O)[C@H](CCCCN)NC(=O)[C@H](CCCCN)NC(=O)[C@H](Cc2ccc(O)cc2)NC(=O)[C@H](CC(C)C)NC(=O)[C@@H]2CCCN2C(=O)[C@H](C)NC(=O)CNC(=O)CNC(=O)[C@H](CO)NC(=O)CNC(=O)CNC(=O)[C@H](CC(N)=O)NC(=O)[C@H](CCC(=O)O)NC(=O)[C@H](CC(C)C)NC(=O)[C@H](CC(C)C)NC(=O)[C@H](CCCCN)NC(=O)[C@H](CCCCN)NC(=O)[C@H]([C@@H](C)CC)NC(=O)[C@H]([C@@H](C)CC)NC(=O)[C@H](CCCCN)NC(=O)[C@H](CCCCN)NC(=O)[C@H](Cc2ccc(O)cc2)NC(=O)[C@H](CC(C)C)NC(=O)[C@@H]2CCCN2C(=O)[C@H](C)NC(=O)CNC(=O)CNC(=O)[C@H](CO)NC(=O)CNC(=O)CNC(=O)[C@H](CC(N)=O)NC(=O)[C@H](CCC(=O)O)NC(=O)[C@H](CC(C)C)NC(=O)[C@H](CC(C)C)NC(=O)[C@H](CCCCN)NC(=O)[C@H](CCCCN)NC(=O)[C@H]([C@@H](C)CC)NC1=O: “remaining intact peptide” 24 ± 0.3% (25% human serum; 50 µM, 24 h; reference: 0 h control).
Under “remaining parent compound”, O=C(O)Cc1cccc(OC(=O)NCCCCCn2ccc3ccc(F)cc32)c1 is recorded as 73 ± 2% (porcine liver S9 fraction without NADPH; 20 µM, 0.5 h, 37 °C).
CC[C@H](C)[C@H](N)C(=O)N[C@@H](CC(N)=O)C(=O)N[C@H]1CNC(=O)[C@H](CC(C)C)NC(=O)[C@H](CC(C)C)NC(=O)[C@H](Cc2ccccc2)NC(=O)[C@H](C)NC1=O — result for “remaining intact peptide”: > 90% (HPLC; ammonium carbonate; 24 h, pH 8.0, 37 °C).
Under “remaining intact compound”, Cc1nnc(-c2ccc(CC(=O)NCCCC[C@H](NC(=O)c3ccc(OCc4ccc(B(O)O)cc4)c(-c4nc5ccccc5c(=O)[nH]4)c3)C(=O)NCC(=O)NCC(=O)NCC(=O)N[C@@H](Cc3ccccc3)C(=O)N[C@@H](Cc3ccccc3)C(=O)O)cc2)nn1 is recorded as ~72% (human serum; 100 µM, 4 h, 37 °C).
CC[C@H](C)[C@@H]1NC(=O)[C@H](CCCCN)NC(=O)[C@H](CCCCN)NC(=O)[C@H](C)NC(=O)[C@H](C(C)C)NC(=O)[C@H](C)NC(=O)[C@H](CC(C)C)NC(=O)[C@H](CC(C)C)NC(=O)[C@H](C)NC(=O)[C@H](CCCCN)NC(=O)[C@H](CC(C)C)NC(=O)[C@H](CC(N)=O)NC(=O)[C@H](CC(C)C)NC(=O)[C@@H](N)CSSC[C@@H](C(N)=O)NC(=O)[C@H](CC(C)C)NC1=O has a remaining peptide of < 40% (RP-HPLC; 10% FBS in RPMI-1640; 50 µM, 24 h, 37 °C).
O=C(NCCCCCn1ccc2ccc(F)cc21)Oc1cccc(F)c1 — result for “remaining parent compound”: 10 ± 3% (porcine plasma; 20 µM, 0.5 h, 37 °C).
CC[C@H](C)[C@@H]1NC(=O)[C@@H]2CSSC[C@H](NC(=O)[C@H](Cc3ccccc3)NC(=O)[C@@H]3CSSC[C@H](NC1=O)C(=O)N[C@@H](CC(C)C)C(=O)N[C@@H](C)C(=O)NCCCC[C@@H](NC(=O)[C@@H](Cc1ccccc1)NC(=O)[C@@H](CC(C)C)NC(=O)[C@@H]1CCCN1C(=O)[C@@H](CC(C)C)NC(=O)[C@@H](Cc1ccccc1)NC(=O)[C@@H](CCC(=O)O)NC(=O)[C@@H](C)NC(=O)[C@@H](Cc1ccccc1)NC(=O)[C@H](N)C(C)C)C(=O)N3)C(=O)N[C@@H]([C@@H](C)O)C(=O)N[C@@H](CCCNC(=N)N)C(=O)N[C@@H](CCSC)C(=O)N[C@@H](CO)C(=O)N1CCC[C@H]1C(=O)N1CCC[C@H]1C(=O)N[C@@H](CCC(N)=O)C(=O)N2: “remaining intact peptide” 85% (pronase digestion; 48 h, pH 8.0, 25 °C, together with: 1 M guanidine HCl).
Under “remaining intact peptide”, CC[C@H](C)[C@@H]1NC(=O)[C@H](CCCCN)NC(=O)[C@H](CCCNC(=N)N)NC(=O)[C@H](Cc2ccc(O)cc2)NC(=O)[C@H](CC(C)C)NC(=O)[C@@H]2CCCN2C(=O)[C@H](C)NC(=O)CNC(=O)CNC(=O)[C@H](CO)NC(=O)CNC(=O)CNC(=O)[C@H](CO)NC(=O)[C@H](CCC(=O)O)NC(=O)[C@H](CC(C)C)NC(=O)[C@H](CC(C)C)NC(=O)[C@H](CCCCN)NC(=O)[C@H](CCCCN)NC(=O)[C@H]([C@@H](C)CC)NC(=O)[C@H]([C@@H](C)CC)NC(=O)[C@H](CCCCN)NC(=O)[C@H](CCCNC(=N)N)NC(=O)[C@H](Cc2ccc(O)cc2)NC(=O)[C@H](CC(C)C)NC(=O)[C@@H]2CCCN2C(=O)CNC(=O)CNC(=O)[C@@H](NC(=O)CN)CSSC[C@@H](C(N)=O)NC(=O)[C@H](CC(C)C)NC(=O)[C@H](CCCCN)NC(=O)[C@H](CCCCN)NC(=O)[C@H]([C@@H](C)CC)NC1=O is recorded as 0% (25% human serum; 50 µM, 24 h; reference: 0 h control).
CC[C@H](C)[C@H](NC(=O)[C@H](CCC(N)=O)NC(=O)[C@H](CO)NC(=O)[C@H](CC(C)(C)C)NC(=O)[C@H](CCC(=O)O)NC(=O)[C@H](CCC(=O)O)NC(=O)[C@H](CC(=O)O)NC(=O)[C@@H]1CCSCc2cccc(c2)CSCC[C@H](NC(=O)[C@H](C)NC(=O)[C@H](CC(=O)O)NC(=O)[C@H](CC(=O)O)NC(=O)[C@H](CCCNC(=N)N)NC(=O)CCNC(=O)CCNC(=O)CCCC[C@@H]2SC[C@@H]3NC(=O)N[C@@H]32)C(=O)N[C@@H](Cc2ccc3ccccc3c2)C(=O)N[C@@H](CC(=O)O)C(=O)N[C@@H]([C@@H](C)CC)C(=O)N[C@@H]([C@@H](C)CC)C(=O)N1)C(=O)N[C@@H](CCC(N)=O)C(=O)N[C@@H](CCC(=O)O)C(=O)N[C@@H](Cc1c[nH]c2ccccc12)C(N)=O: “remaining intact peptide” 59% (HeLa cell lysate; 150 µM, 24 h, pH 8, 37 °C; reference: time zero).
Under “remaining intact peptide”, CC[C@H](C)[C@@H]1NC(=O)[C@H](CCCCN)NC(=O)[C@H](CCCCN)NC(=O)[C@H](Cc2ccc(O)cc2)NC(=O)[C@H](CC(C)C)NC(=O)[C@@H]2CCCN2C(=O)[C@H](C)NC(=O)CNC(=O)CNC(=O)[C@H](CO)NC(=O)CNC(=O)CNC(=O)[C@H](CO)NC(=O)[C@H](CCC(=O)O)NC(=O)[C@H](CC(C)C)NC(=O)[C@H](CC(C)C)NC(=O)[C@H](CCCNC(=N)N)NC(=O)[C@H](CCCCN)NC(=O)[C@H]([C@@H](C)CC)NC(=O)[C@H]([C@@H](C)CC)NC(=O)[C@H](CCCCN)NC(=O)[C@H](CCCCN)NC(=O)[C@H](Cc2ccc(O)cc2)NC(=O)[C@H](CC(C)C)NC(=O)[C@@H]2CCCN2C(=O)CNC(=O)CNC(=O)[C@@H](NC(=O)CN)CSSC[C@@H](C(N)=O)NC(=O)[C@H](CC(C)C)NC(=O)[C@H](CCCNC(=N)N)NC(=O)[C@H](CCCCN)NC(=O)[C@H]([C@@H](C)CC)NC1=O is recorded as 11.5 ± 0.1% (25% human serum; 50 µM, 24 h; reference: 0 h control).
Under “remaining intact peptide”, CC[C@H](C)[C@H](NC(=O)[C@@H](Cc1c[nH]c2ccccc12)NC(=O)[C@@H]1CCCN1C(=O)[C@H](CCCCN)NC(=O)[C@H](CCCCN)NC(=O)CCNC(=O)CCNC(=O)CN1CCN(CC(=O)O)CCN(CC(=O)O)CCN(CC(=O)O)CC1)C(=O)N[C@@H](C[Si](C)(C)C)C(=O)O [gallium-68 labelled] is recorded as 5% (human blood plasma; 30 min).
CC[C@H](C)[C@@H]1NC(=O)[C@@H](NC(=O)[C@H](CO)NC(=O)CNC(=O)CN)CSSC[C@@H](C(=O)NCC(=O)NCC(=O)N[C@@H](CO)C(=O)O)NC(=O)[C@H](CCSC)NC(=O)[C@H](CC(C)C)NC(=O)[C@H](CCCNC(=N)N)NC(=O)CNC(=O)CNC(=O)[C@H](CC(=O)O)NC1=O — result for “remaining intact peptide”: < 20% (LC-MS; chymotrypsin in buffer; 2 h, 37 °C, together with: chymotrypsin 100 µg/mL).

Repeated from above:
Under “remaining intact compound”, Cc1nnc(-c2ccc(CC(=O)NCCCC[C@H](NC(=O)c3ccc(OCc4ccc(B(O)O)cc4)c(-c4nc5ccccc5c(=O)[nH]4)c3)C(=O)NCC(=O)NCC(=O)NCC(=O)N[C@@H](Cc3ccccc3)C(=O)N[C@@H](Cc3ccccc3)C(=O)O)cc2)nn1 is recorded as ~72% (human serum; 100 µM, 4 h, 37 °C).
